# Measured values collected from several papers.
# Lines come from different studies, so protocols differ. ± marks the error that the study gave.
Molecule,test,system,conditions,scale,endpoint,value
CCOC(=O)c1sc(NN=C2c3ccccc3-c3nc4cc(F)ccc4nc32)nc1C,,mice with STZ-induced diabetes,"oral, 25 mg/kg, 216 h, day 9",,blood glucose,275 ± 24 mg/dL
Cc1c(C)c2c(c(C)c1O)CCC(C)(C(=O)NN=C1C(=O)N(C)c3cc(Cl)ccc31)O2 (stereo not drawn),seizure protection,male CF-1 mice,"intraperitoneal, 0.5 h, together with: maximal electroshock",,minimal effective dose,30 mg/kg
CCC1SC(NN=C2c3ccccc3-c3nc4cc(F)ccc4nc32)=NC1=O (stereo not drawn),,mice with STZ-induced diabetes,"oral, 25 mg/kg, 288 h, day 12",,blood glucose,202 ± 13.5 mg/dL
CC(C)C[C@H](NC(=O)[C@H](CO)NC(=O)[C@H](CCCNC(=N)N)NC(=O)[C@H](CC(=O)O)NC(=O)[C@H](CCC(=O)O)NC(=O)[C@H](C)NC(=O)[C@@H]1CCCN1C(=O)[C@H](C)NC(=O)[C@H](CCC(=O)O)NC(=O)[C@@H]1CCCN1C(=O)[C@@H]1CCCN1)C(N)=O,HPLC-EC,"rat F344, unilateral 6-OHDA lesion, ipsilateral striatum","intranasal, 300 µg daily, 5 weeks post lesion",,HVA level,21 ± 20 ng/g
CCOC(=O)C=C1SC(NN=C2c3ccccc3-c3nc4cc(F)ccc4nc32)=NC1=O,,mice with STZ-induced diabetes,"oral, 25 mg/kg, 216 h, day 9",,blood glucose,294 ± 60.9 mg/dL
CCOc1nc2cccc(C(=O)O)c2n1Cc1ccc(-c2ccccc2-c2nn[nH]n2)cc1,,mouse DSS colitis,"transanal, 10 mg/kg/day, day 1",reference: baseline,body weight change,-0.63 ± 1.63%
CC1CCc2c1ccc1c2ccc2ccccc21 (stereo not drawn),adrenal haemorrhage prevention,rat,"oral, together with: 7,12-DMBA 5 mg i.v.",,minimal protective dose,1 mg
AGEDPHGYALPGQAA,ELISA or Luminex,"peptide, mouse peritoneal macrophages, C57BL/6 mouse","optimal dose within 0.1 pM to 100 nM, 1 h pretreatment, 15 h stimulation, together with: LPS 100 ng/mL + IFN-γ 20 ng/mL",reference: LPS/IFN-γ stimulated control,inhibition of TNF-α release,0%
CC(C)[C@H](NC(=O)C(C)(F)F)[C@H](Oc1ccc2c(cnn2-c2ccc(=O)n(C)c2)c1)c1ccccc1,TNF-alpha release,"human, whole blood ex vivo","total concentration, PK/PD model, together with: lipopolysaccharide",,IC50,765 nM
CCCC1O[C@@H]2C[C@H]3[C@@H]4CCC5=CC(=O)C=C[C@]5(C)[C@H]4[C@@H](O)C[C@]3(C)[C@]2(C(=O)CO)O1 (stereo partly drawn),measured: human FGF21 protein,"CD-1 mouse, plasma","subcutaneous, 0.3 mg/kg mRNA, MC3 LNP with hFGF21 mRNA, steroid/mRNA 2:3",reference: LNP without steroid,AUC(2-58 h) fold change,1.9 fold
GEBGABGNKGEQGPKGEBGP,,"peptide, DBA/1 mouse, collagen-induced arthritis","iv, 0.3 mg single dose, day 25, established arthritis",,arthritis incidence,80%
Cc1ccc2cc3c(ccc4cc(C)ccc43)cc2c1,adrenal haemorrhage prevention,rat,"oral, together with: 7,12-DMBA 5 mg i.v.",,minimal protective dose,0.5 mg
Cc1cc(-c2ccc(C(=O)[C@@H]3CCCC[C@H]3C(=O)Nc3cnn4c3C(=O)NCC4)cc2)n[nH]1,"urinary LTE4 level, measured: leukotriene E4","human, urine",versus trough plasma concentration,,IC50,0.8 nM
SIIVFEKL,"flow cytometry, measured: CD44hi CD8+ T cells","peptide, OT-I CD8+ T cells, mouse","dose not given, primed 5 days, TGF-β1 from day 2 onward, together with: 20 ng/mL TGF-β1",,single cytokine producers,17.7%
CCOC(=O)c1sc(N=C2c3ccccc3-c3nc4cc(F)ccc4nc32)nc1C,,mice with STZ-induced diabetes,"oral, 25 mg/kg, 288 h, day 12",,blood glucose,178 ± 3.8 mg/dL
PHGYFLPGQFA,ELISA or Luminex,"peptide, mouse peritoneal macrophages, C57BL/6 mouse","optimal dose within 0.1 pM to 100 nM, 1 h pretreatment, 15 h stimulation, together with: LPS 100 ng/mL + IFN-γ 20 ng/mL",reference: LPS/IFN-γ stimulated control,inhibition of TNF-α release,0%
SIYNFEKL,"flow cytometry, measured: CD44hi CD8+ T cells","peptide, OT-I CD8+ T cells, mouse","dose not given, primed 5 days, TGF-β1 from day 2 onward, together with: 20 ng/mL TGF-β1",,single cytokine producers,22%
Cc1cc(C)cc(/C=C(\C(=O)c2cc(C)[nH]c(=O)c2C(=O)N2CCCCC2)c2cc(C)cc(C)c2)c1,"cell proliferation, MTT","35404 melanoma brain metastasis, human patient-derived","72 h, tested up to 10 µM",,IC50,> 10000 nM
Cc1c(C)c2c(c(C)c1O)CCC(C)(C(=O)NN=C1C(=O)Nc3ccccc31)O2 (stereo not drawn),seizure protection,male CF-1 mice,"intraperitoneal, 0.5 h, together with: pentylenetetrazole 60 mg/kg subcutaneous",,minimal effective dose,300 mg/kg
CS/C(S)=N/CCCC[S+](C)[O-] (racemic),measured: Abcb1b,"rat, mammary gland","oral gavage, 200 mg/kg, 4 days daily",reference: vehicle,mRNA level,0.579 fold
CCN(O)N=Nc1ccc(S(=O)(=O)Nc2onc(C)c2C)cc1,paw oedema,"rat, carrageenan oedema","oral, 100 mg/kg, 2 h after carrageenan",reference: vehicle,inhibition,22.3%
Cc1cc(C)c(/C=C2\C(=O)Nc3ccccc32)[nH]1,MRI,human,"dose not given, 2.7 months",,tumour volume,75.1 cm³
CC1(C)O[C@@H]2[C@@H](CO[C@@]3(COS(N)(=O)=O)OC(C)(C)O[C@@H]23)O1,,Scn1a+/- mice,"oral in chow, dose not given, spontaneous seizures, subchronic",reference: untreated,GTCS progressing to tonic hindlimb extension,decreased
C[C@H]1C[C@H]2CSC(N)=N[C@@]2(c2nc(NC(=O)c3ccc(OC(F)F)cn3)cs2)CO1,measured: CSF total Aβ,healthy adults,"125 mg once daily, 14 days, day 15",reference: placebo-adjusted baseline,change from baseline,-78.4%
insulin aspart,euglycaemic glucose clamp,elderly type 1 diabetes,"subcutaneous, 0.2 U/kg, blood glucose decrease ≥0.3 mmol/L",,onset of action,29.1 min
COc1ccc2c(c1)c(CC(=O)O)c(C)n2C(=O)c1ccc(Cl)cc1,"multiplex bead immunoassay, measured: TNF-α","CD-1 mice, serum","ip, 20 mg/kg, three-injection regimen, together with: LPS 3 mg/kg",,cytokine level,116 ± 87.2 pg/mL
O=C1CSC(N=C2c3ccccc3-c3nc4cc(F)ccc4nc32)=N1,,mice with STZ-induced diabetes,"oral, 25 mg/kg, 216 h, day 9",,blood glucose,304 ± 7.1 mg/dL
Cc1cc(-c2nnc(N)nc2-c2ccc(F)cc2)cc(Cl)n1,,"patients with mCRPC, low blood adenosine signature","dose not given, alone or with durvalumab",,median progression-free survival,8.7 weeks
C[C@]12CCCN1CC1=NNC(=O)c3cc(F)cc4[nH]c2c1c34,"PARylation, measured: PAR","MDA-MB-436 xenograft, mouse, tumour","5.45 mg/kg single dose, first 12 h",,inhibition,≥ 80%
CC(=O)O[C@H]1C(=O)[C@@]2(C)[C@H]([C@H](OC(=O)c3ccccc3)[C@]3(O)C[C@H](OC(=O)[C@H](O)[C@@H](NC(=O)c4ccccc4)c4ccccc4)C(C)=C1C3(C)C)[C@]1(OC(C)=O)CO[C@@H]1C[C@@H]2O,,"A549 xenograft, Mus musculus","intravenous, 10 mg/kg every 4 days",reference: vehicle,tumour growth inhibition,48%
COCCc1ccc(OCC(O)CNC(C)C)cc1 (stereo not drawn),,"rats, adrenaline arrhythmia, myocardium","intragastric, 2.57 g/kg daily, 14 days",,SERCA activity,20 ± 1.22 U/mL
COc1c(C)c(C)c2c(c1C)CCC(C)(C(=O)NN=C1C(=O)Nc3ccc(Br)cc31)O2 (stereo not drawn),seizure protection,male CF-1 mice,"intraperitoneal, 4 h, together with: pentylenetetrazole 60 mg/kg subcutaneous",,minimal effective dose,100 mg/kg
CCN(O)N=Nc1ccc(S(=O)(=O)Nc2nccs2)cc1,paw oedema,"rat, carrageenan oedema","oral, 100 mg/kg, 4 h after carrageenan",reference: vehicle,inhibition,71.7%
CCCCCCCCCCCCCCCC(=O)N[C@@H](CCC(=O)NCCCC[C@H](NC(=O)[C@H](C)NC(=O)[C@H](C)NC(=O)[C@H](CCC(N)=O)NC(=O)CNC(=O)[C@H](CCC(=O)O)NC(=O)[C@H](CC(C)C)NC(=O)[C@H](Cc1ccc(O)cc1)NC(=O)[C@H](CO)NC(=O)[C@H](CO)NC(=O)[C@@H](NC(=O)[C@H](CC(=O)O)NC(=O)[C@H](CO)NC(=O)[C@@H](NC(=O)[C@H](Cc1ccccc1)NC(=O)[C@@H](NC(=O)CNC(=O)[C@H](CCC(=O)O)NC(=O)[C@H](C)NC(=O)[C@@H](N)Cc1c[nH]cn1)[C@@H](C)O)[C@@H](C)O)C(C)C)C(=O)N[C@@H](CCC(=O)O)C(=O)N[C@@H](Cc1ccccc1)C(=O)N[C@H](C(=O)N[C@@H](C)C(=O)N[C@@H](Cc1c[nH]c2ccccc12)C(=O)N[C@@H](CC(C)C)C(=O)N[C@H](C(=O)N[C@@H](CCCNC(=N)N)C(=O)NCC(=O)N[C@@H](CCCNC(=N)N)C(=O)NCC(=O)O)C(C)C)[C@@H](C)CC)C(=O)O,,diet-induced obese mice,"subcutaneous, 80 nmol/kg once daily, 57 days",reference: vehicle,body weight reduction,8 ± 4.87%
insulin aspart,euglycaemic glucose clamp,Japanese type 1 diabetes patients,"subcutaneous, 0.2 U/kg",,time to early 50% GIRmax,47.4 min
TLQPPASSRRRHAHHALPPAR,,"peptide, rat stomach fundus strips",3 µM,reference: TLQP-21,contractile activity,88 ± 9%
Cc1c(C)c2c(c(C)c1O)CCC(C)(C(=O)NN=C1C(=O)Nc3ccc(Br)cc31)O2 (stereo not drawn),seizure protection,male CF-1 mice,"intraperitoneal, 0.5 h, together with: pentylenetetrazole 60 mg/kg subcutaneous",,minimal effective dose,30 mg/kg
NCCCC[C@@H]1NC(=O)[C@@H](Cc2c[nH]c3ccccc23)NC(=O)[C@H](c2ccccc2)NC(=O)[C@@H]2C[C@@H](OC(=O)NCCN)CN2C(=O)[C@H](Cc2ccccc2)NC(=O)[C@H](Cc2ccc(OCc3ccccc3)cc2)NC1=O,GHRH-stimulated GH secretion,healthy human volunteers,"subcutaneous, 30 µg, together with: GHRH 1 µg/kg",reference: pre-dose baseline,GH AUC(0-2h) change,-45.3%
COc1ccc2nc([S@@+]([O-])Cc3ncc(C)c(OC)c3C)[nH]c2c1,,human poor metabolizer,"40 mg/day, day 6, 5 days dosing",,intragastric pH,3 ± 2.82

# For quick reference, copied from above:
Molecule,test,system,conditions,scale,endpoint,value
CCOC(=O)c1sc(N=C2c3ccccc3-c3nc4cc(F)ccc4nc32)nc1C,,mice with STZ-induced diabetes,"oral, 25 mg/kg, 288 h, day 12",,blood glucose,178 ± 3.8 mg/dL
CC1CCc2c1ccc1c2ccc2ccccc21 (stereo not drawn),adrenal haemorrhage prevention,rat,"oral, together with: 7,12-DMBA 5 mg i.v.",,minimal protective dose,1 mg
Cc1ccc2cc3c(ccc4cc(C)ccc43)cc2c1,adrenal haemorrhage prevention,rat,"oral, together with: 7,12-DMBA 5 mg i.v.",,minimal protective dose,0.5 mg
CCN(O)N=Nc1ccc(S(=O)(=O)Nc2nccs2)cc1,paw oedema,"rat, carrageenan oedema","oral, 100 mg/kg, 4 h after carrageenan",reference: vehicle,inhibition,71.7%
